Measured values gathered from unrelated publications.
Each numbered part is a random draw from the data of one study; scales do not carry over between parts. Changes are numbered by the printed parent chain.
Sequence of UniProt P11229 (whole entry, looked up): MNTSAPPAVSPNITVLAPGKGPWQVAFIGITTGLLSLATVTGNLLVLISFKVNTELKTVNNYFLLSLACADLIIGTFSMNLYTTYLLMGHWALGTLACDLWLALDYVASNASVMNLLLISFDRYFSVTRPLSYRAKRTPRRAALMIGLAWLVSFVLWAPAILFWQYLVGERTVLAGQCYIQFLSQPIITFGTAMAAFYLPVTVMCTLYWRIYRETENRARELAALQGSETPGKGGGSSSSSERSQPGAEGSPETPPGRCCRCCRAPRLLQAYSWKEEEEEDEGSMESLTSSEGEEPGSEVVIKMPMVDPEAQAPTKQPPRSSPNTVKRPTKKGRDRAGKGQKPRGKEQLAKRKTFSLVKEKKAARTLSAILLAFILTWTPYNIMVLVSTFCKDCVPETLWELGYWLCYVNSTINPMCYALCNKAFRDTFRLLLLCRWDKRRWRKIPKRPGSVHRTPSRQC
Sequence of UniProt P23975 (whole entry, looked up): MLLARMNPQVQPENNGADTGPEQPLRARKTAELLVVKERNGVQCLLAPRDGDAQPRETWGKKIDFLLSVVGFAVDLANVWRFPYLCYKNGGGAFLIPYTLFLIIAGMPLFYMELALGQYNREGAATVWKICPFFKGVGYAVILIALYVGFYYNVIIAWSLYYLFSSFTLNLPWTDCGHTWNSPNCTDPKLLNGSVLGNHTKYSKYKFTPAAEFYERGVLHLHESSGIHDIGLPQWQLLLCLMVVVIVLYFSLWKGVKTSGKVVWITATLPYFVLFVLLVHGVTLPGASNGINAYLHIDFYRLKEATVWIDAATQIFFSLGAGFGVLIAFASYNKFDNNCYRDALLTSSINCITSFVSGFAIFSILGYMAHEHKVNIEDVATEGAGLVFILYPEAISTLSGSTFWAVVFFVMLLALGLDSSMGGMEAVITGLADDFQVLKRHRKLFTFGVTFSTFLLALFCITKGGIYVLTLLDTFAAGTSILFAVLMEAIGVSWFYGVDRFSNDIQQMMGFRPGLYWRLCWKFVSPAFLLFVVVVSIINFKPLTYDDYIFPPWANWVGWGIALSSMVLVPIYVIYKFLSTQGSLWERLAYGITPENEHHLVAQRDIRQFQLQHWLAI
Sequence of UniProt P20309 (whole entry, looked up): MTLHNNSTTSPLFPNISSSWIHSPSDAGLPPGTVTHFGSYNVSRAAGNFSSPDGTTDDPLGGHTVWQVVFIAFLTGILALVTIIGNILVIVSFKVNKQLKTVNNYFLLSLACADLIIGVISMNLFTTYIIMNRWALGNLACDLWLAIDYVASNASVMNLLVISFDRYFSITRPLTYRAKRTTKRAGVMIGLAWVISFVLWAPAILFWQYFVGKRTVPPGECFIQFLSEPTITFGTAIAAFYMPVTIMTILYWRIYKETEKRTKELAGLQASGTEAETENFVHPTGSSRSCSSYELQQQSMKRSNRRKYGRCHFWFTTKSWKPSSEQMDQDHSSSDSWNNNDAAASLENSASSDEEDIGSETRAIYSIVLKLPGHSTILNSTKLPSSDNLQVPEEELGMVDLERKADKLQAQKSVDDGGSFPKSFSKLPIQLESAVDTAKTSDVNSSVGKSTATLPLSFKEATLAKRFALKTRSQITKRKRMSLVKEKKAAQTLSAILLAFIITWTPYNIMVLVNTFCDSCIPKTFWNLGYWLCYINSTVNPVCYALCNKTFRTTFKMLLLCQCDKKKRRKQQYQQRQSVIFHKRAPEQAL
Sequence of UniProt Q01959 (whole entry, looked up): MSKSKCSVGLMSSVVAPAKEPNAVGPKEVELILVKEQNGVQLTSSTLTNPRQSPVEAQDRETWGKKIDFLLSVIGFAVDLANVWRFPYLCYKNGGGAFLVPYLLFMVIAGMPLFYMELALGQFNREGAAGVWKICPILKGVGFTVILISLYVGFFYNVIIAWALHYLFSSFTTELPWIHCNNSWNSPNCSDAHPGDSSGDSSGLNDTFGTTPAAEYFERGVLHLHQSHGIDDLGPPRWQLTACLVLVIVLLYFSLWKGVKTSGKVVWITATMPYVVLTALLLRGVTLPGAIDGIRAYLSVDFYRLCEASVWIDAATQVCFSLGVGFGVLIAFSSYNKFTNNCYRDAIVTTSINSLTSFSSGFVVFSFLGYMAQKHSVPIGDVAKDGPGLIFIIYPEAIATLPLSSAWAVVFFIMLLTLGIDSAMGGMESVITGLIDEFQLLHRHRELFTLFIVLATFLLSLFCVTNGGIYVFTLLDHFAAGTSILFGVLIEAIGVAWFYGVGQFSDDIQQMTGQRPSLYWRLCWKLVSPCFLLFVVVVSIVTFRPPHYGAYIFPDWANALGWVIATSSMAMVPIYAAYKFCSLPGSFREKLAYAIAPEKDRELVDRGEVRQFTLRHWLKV

Block 1
Compound: Cc1cc2c(-c3ccco3)cnc(N[C@@H]3CCN(C)C[C@H]3C(=O)NC3CCCCC3)c2[nH]c1=O
Concentration: 10 µM
Measurement: inhibition
SLC6A2 (Homo sapiens, UniProt P23975); cell-free assay: 30.5%
SLC6A3 (Homo sapiens, UniProt Q01959); cell-free assay: 28.5%
CHRM3 (Homo sapiens, UniProt P20309); ligand displacement: -11%
CHRM1 (Homo sapiens, UniProt P11229); ligand displacement: -9.42%

Block 2
Target: CCNA1, cyclin fold, Cln2 fusion (human)
Technique: yeast growth competition, sequencing
Sample: yeast
Setting: strong parent motif
Reference: not given
Reading: higher = stronger binding
Measurement: normalised enrichment score
Parent: viral docking peptide; TSVRRALFTGGSD; partner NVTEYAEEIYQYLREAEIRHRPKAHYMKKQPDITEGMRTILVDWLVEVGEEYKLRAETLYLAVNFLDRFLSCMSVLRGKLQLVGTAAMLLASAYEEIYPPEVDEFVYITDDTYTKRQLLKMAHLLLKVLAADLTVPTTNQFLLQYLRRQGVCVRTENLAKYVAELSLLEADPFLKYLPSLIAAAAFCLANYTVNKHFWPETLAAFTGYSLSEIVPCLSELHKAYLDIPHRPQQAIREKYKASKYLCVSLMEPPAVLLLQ
TSKRRALFTGGSD [V3K]: 0.178
TSVRRALFTGGED [S12E]: 1.38
TSVRRAQFTGGSD [L7Q]: 0.0142
TSVQRALFTGGSD [R4Q]: 0.0151
TSVRRALFGGGSD [T9G]: 1.09
TSVRRALFLGGSD [T9L]: 1.37
TSVRRALFTGTSD [G11T]: 1.46
TSVRRALFTDGSD [G10D]: 1.63
TSARRALFTGGSD [V3A]: 0.659
TSVRRELFTGGSD [A6E]: 1.59
TSHRRALFTGGSD [V3H]: 0.0588
TSVRRALFTGMSD [G11M]: 1.04
TSVRKALFTGGSD [R5K]: 0.518
TSVRRSLFTGGSD [A6S]: 0.65
TSVRRVLFTGGSD [A6V]: 0.911
TSVRRALWTGGSD [F8W]: 0.566
TSVRRALFTFGSD [G10F]: 0.608
TSVRRALFTGGPD [S12P]: 1.24

Block 3
Target: HLA class I histocompatibility antigen, C alpha chain, allele C*04:01 (Homo sapiens, UniProt P10321)
Effect on: peptide-MHC binding
Molecule type: peptide
Concentration: concentration not given
Measurement: binding
YYKKTFSAL: inactive
AEFGPWQTV: inactive
VMAPRTLIL: inactive
FPMIIGSEL: inactive
FQILHDRFF: inactive
HASHYTIPW: inactive
RPPYSSYGY: inactive
IIMRRFFYF: inactive
LPSCPTNFCIF: inactive
YVLNGYTEF: inactive
RFFKHFMSL: inactive
VMAPRTLVL: inactive
GSYFSGFYK: inactive
SVMAIFYLR: inactive
LEEDIQHFL: inactive
WYDALCVLL: active
KAIGTVLV: inactive
IFDDLQGSL: active
YVILVGAAF: inactive
YMMDDLEL: inactive
MAAVRTTAL: inactive
QTDNQLAVF: inactive
TPGRYRTAV: inactive
RMFKRVFNM: inactive
RPAPARLPL: inactive

Block 4
Target: Histone acetyltransferase KAT6A, both winged helices, GST fusion (KAT6A, Homo sapiens, UniProt Q92794, residues 1-181)
Technique: protein binding microarray
Molecule type: double-stranded DNA, one strand shown
Sample: in vitro
Concentration: not given
Setting: 8-mer, flanks averaged, mean of 2 arrays, mostly near background
Reference: not given
Reading: higher = stronger binding
Measurement: E-score
Residues (chain): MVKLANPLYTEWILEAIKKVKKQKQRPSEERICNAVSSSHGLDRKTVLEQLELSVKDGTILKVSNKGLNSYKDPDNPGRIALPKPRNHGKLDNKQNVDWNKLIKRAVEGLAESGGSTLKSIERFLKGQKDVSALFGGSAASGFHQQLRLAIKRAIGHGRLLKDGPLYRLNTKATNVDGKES
CCATATTA: -0.0402
CTCGCAAA: -0.0964
AAAGGGCC: -0.115
CCCCGTAG: 0.154
CCGTTTGC: 0.207
ACAGAGGG: -0.131
TTAATCAA: -0.0323
CCACACAA: -0.181
